Results from different studies.
Every numbered part comes from another study and shows a few of its results, in no order.
Chain of UniProt Q96PF2 (whole entry, looked up): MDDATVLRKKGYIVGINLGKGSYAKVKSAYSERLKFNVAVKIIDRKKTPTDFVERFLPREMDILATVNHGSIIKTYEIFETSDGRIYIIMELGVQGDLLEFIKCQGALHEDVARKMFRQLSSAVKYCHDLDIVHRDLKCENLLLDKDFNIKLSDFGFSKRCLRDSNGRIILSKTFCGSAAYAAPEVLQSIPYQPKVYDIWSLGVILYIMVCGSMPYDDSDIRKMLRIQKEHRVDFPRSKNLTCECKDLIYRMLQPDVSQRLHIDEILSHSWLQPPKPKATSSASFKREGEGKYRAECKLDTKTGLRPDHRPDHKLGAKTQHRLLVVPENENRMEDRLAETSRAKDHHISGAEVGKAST
Chain of UniProt P51451 (whole entry, looked up): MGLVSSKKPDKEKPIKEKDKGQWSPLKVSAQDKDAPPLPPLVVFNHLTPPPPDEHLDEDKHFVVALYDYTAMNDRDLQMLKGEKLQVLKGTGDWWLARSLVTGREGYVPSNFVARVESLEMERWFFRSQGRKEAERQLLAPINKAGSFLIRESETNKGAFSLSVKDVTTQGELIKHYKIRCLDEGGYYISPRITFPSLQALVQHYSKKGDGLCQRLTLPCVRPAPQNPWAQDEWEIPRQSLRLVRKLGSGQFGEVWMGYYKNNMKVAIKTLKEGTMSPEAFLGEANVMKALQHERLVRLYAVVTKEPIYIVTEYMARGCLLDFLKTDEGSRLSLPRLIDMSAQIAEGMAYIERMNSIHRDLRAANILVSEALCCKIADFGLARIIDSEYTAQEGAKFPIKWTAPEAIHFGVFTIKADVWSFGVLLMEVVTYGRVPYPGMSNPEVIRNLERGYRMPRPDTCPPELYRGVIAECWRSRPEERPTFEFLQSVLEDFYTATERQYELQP
Chain of UniProt P10721 (whole entry, unmodified, looked up): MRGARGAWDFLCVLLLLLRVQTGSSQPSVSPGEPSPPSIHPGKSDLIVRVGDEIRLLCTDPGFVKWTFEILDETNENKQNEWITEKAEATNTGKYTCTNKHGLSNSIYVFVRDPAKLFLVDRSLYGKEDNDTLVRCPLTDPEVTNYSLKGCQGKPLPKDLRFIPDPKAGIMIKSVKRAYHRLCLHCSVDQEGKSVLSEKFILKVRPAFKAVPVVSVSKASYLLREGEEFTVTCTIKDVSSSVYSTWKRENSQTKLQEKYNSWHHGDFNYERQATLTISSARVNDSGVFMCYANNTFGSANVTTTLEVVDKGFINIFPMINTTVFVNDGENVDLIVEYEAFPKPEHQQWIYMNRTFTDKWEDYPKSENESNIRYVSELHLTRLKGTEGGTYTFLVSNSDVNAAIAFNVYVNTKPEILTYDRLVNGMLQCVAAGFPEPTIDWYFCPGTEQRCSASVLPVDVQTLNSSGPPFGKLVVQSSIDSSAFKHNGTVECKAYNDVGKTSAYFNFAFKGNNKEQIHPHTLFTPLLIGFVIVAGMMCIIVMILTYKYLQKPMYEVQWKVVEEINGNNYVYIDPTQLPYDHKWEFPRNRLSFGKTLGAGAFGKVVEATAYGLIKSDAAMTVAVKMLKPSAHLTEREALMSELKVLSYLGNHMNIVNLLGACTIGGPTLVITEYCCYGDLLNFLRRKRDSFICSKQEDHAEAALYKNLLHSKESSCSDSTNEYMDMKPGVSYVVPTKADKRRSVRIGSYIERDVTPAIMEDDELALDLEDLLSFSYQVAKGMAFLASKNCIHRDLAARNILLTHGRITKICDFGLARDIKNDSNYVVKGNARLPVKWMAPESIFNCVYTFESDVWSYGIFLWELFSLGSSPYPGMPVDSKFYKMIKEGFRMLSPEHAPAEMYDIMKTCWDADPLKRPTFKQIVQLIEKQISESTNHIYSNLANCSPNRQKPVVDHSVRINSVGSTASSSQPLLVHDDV
Chain of UniProt P57059 (whole entry, looked up): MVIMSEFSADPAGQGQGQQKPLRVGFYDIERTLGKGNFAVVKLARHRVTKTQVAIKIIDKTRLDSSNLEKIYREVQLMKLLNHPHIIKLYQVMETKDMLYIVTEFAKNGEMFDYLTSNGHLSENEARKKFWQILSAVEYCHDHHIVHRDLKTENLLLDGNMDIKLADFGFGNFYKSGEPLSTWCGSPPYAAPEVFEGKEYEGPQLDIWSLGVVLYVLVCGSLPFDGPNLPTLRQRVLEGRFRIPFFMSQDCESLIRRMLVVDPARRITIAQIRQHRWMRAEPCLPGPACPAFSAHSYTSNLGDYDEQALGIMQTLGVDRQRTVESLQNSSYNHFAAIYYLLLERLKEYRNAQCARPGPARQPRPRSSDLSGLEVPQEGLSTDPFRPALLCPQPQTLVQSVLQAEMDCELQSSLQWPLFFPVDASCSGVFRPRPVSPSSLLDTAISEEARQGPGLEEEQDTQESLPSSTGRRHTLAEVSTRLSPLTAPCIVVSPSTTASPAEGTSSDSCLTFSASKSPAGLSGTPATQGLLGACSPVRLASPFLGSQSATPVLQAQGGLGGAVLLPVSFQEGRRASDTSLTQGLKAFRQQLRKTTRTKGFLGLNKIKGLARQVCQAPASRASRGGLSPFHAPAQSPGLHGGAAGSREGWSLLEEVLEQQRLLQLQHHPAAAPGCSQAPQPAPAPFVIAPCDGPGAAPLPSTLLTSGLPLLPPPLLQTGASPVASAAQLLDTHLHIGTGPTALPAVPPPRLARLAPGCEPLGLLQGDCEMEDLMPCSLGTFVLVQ
Chain of UniProt P54762 (whole entry, looked up): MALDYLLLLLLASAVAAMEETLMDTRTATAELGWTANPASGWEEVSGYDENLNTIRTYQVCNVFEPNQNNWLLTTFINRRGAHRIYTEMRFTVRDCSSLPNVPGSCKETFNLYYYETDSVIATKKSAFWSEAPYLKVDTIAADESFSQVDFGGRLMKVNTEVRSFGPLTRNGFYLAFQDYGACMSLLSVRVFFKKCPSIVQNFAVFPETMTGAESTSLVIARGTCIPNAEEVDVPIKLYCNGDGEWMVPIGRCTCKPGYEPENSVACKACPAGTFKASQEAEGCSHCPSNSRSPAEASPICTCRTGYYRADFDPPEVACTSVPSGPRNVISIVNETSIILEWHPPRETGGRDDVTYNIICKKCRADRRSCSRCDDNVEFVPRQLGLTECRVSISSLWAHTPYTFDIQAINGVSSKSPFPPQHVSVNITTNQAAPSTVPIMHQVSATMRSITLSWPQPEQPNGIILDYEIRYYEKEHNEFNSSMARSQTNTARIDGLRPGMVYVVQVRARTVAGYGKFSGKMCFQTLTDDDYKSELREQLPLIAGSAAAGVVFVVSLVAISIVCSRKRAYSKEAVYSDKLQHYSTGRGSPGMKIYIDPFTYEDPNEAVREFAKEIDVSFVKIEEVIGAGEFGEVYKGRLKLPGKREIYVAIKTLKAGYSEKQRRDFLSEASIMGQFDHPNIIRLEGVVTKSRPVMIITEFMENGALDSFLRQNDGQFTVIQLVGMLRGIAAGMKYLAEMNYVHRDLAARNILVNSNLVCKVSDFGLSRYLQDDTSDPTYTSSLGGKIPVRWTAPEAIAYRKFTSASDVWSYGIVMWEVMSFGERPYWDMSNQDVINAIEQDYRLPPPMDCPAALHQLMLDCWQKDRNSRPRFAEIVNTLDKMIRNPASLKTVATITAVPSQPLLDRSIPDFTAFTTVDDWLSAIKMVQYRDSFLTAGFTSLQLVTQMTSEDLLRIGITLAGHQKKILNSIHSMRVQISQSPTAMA
Chain of UniProt Q8NI60 (whole entry, looked up): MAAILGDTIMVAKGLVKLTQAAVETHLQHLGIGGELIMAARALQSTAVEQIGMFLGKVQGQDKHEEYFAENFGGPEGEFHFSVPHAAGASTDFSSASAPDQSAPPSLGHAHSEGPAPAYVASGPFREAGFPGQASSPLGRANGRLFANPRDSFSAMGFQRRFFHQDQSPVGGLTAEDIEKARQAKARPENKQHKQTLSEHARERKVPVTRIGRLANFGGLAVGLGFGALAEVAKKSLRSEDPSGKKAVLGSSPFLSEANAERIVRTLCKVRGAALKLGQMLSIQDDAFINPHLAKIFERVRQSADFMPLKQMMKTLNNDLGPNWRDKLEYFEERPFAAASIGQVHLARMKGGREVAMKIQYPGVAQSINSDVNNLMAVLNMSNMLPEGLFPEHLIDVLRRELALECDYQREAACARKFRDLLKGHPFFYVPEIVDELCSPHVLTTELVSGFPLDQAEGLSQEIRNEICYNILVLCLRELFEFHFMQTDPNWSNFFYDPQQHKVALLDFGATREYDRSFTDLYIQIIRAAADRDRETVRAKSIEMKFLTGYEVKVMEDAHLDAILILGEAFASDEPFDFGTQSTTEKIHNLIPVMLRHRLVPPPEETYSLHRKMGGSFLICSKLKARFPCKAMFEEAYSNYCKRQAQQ
Chain of UniProt Q16816 (whole entry, looked up): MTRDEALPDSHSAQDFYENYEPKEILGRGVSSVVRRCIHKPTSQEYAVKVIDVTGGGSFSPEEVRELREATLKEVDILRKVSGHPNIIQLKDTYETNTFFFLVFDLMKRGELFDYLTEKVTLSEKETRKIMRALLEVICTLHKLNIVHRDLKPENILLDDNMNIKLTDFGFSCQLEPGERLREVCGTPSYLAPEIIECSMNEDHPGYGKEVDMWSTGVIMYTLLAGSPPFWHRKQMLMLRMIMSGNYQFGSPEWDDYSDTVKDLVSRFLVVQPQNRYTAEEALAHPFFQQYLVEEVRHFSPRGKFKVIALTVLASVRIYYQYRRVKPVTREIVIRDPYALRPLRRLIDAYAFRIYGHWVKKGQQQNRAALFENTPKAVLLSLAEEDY
Chain of UniProt Q00534 (whole entry, looked up): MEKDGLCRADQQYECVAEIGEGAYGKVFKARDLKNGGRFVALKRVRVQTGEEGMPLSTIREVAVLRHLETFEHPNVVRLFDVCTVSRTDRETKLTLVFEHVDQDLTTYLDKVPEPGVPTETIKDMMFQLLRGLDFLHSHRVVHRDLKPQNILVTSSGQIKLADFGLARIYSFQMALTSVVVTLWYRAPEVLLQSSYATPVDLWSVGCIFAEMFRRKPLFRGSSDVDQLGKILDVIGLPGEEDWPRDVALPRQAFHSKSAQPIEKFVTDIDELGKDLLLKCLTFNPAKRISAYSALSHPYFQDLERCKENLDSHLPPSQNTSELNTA

Block 1
Host: human
Medium: microsomes or S9
Concentration: 2 µM
Time: 0.5 h
SMILES | remaining compound
O=C(COc1ccccc1F)NC[C@H]1CC[C@H](c2ncc(Cl)cc2-c2ccncc2)CC1 | 4.92%
Cc1ccc(CN(CCCn2ccnc2)Cc2ccc3ncccc3c2)s1 | 11.4%
Cc1nc(C)c(COCc2ccccc2)c(-c2ccc(Cl)cc2)c1CO | 51.7%
COc1cc2c(Nc3cc(Cl)cc(Cl)c3)ncnc2cc1O | 84.5%
CC1(C)C=C(Br)c2ccnc(-c3ccc(S(C)(=O)=O)cc3F)c2O1 | 4.39%

Block 2
SMILES: CCCCN(CCCC)C(=O)CN1C[C@H](c2cc(OC)c3c(c2)OCO3)[C@@H](C(=O)O)[C@@H]1CC(C)(C)CCC
Concentration: 1 µM
target | assay | remaining binding [%]
Serine/threonine-protein kinase mTOR (MTOR, Homo sapiens, UniProt P42345) | cell-free assay, competition with immobilised ligand | 100
Myotonin-protein kinase (DMPK, Homo sapiens, UniProt Q09013) | cell-free assay, competition with immobilised ligand | 100
Tyrosine-protein kinase FRK (FRK, Homo sapiens, UniProt P42685) | cell-free assay, competition with immobilised ligand | 100
Serine/threonine-protein kinase PAK 4 (PAK4, Homo sapiens, UniProt O96013) | cell-free assay, competition with immobilised ligand | 100
Serine/threonine-protein kinase SIK1 (SIK1, Homo sapiens, UniProt P57059) | competition binding | 100
Epidermal growth factor receptor (EGFR, Homo sapiens, UniProt P00533, L858R) | cell-free assay, competition with immobilised ligand | 99.7
Serine/threonine-protein kinase PRP4 homolog (PRPF4B, Homo sapiens, UniProt Q13523) | cell-free assay, competition with immobilised ligand | 100
Mitogen-activated protein kinase 1 (MAPK1, Homo sapiens, UniProt P28482) | cell-free assay, competition with immobilised ligand | 100
Atypical kinase COQ8A, mitochondrial (COQ8A, Homo sapiens, UniProt Q8NI60) | cell-free assay, competition with immobilised ligand | 100
Aurora kinase A (AURKA, Homo sapiens, UniProt O14965) | cell-free assay, competition with immobilised ligand | 90.3
Serine/threonine-protein kinase D3 (PRKD3, Homo sapiens, UniProt O94806) | cell-free assay, competition with immobilised ligand | 90.2
ALK tyrosine kinase receptor (ALK, Homo sapiens, UniProt Q9UM73) | cell-free assay, competition with immobilised ligand | 58.3
Dual specificity mitogen-activated protein kinase kinase 7 (MAP2K7, Homo sapiens, UniProt O14733) | cell-free assay, competition with immobilised ligand | 90.8
Mast/stem cell growth factor receptor Kit (KIT, Homo sapiens, UniProt P10721, A829P) | cell-free assay, competition with immobilised ligand | 80.9
Cyclin-dependent kinase 2 (CDK2, Homo sapiens, UniProt P24941) | cell-free assay, competition with immobilised ligand | 100
Interferon-induced, double-stranded RNA-activated protein kinase (EIF2AK2, Homo sapiens, UniProt P19525) | cell-free assay, competition with immobilised ligand | 100
Serine/threonine-protein kinase BRSK1 (BRSK1, Homo sapiens, UniProt Q8TDC3) | cell-free assay, competition with immobilised ligand | 100

Block 3
SMILES: Cc1ccc(NC(=O)c2ccc(CN3CCN(C)CC3)cc2)cc1Nc1nccc(-c2cccnc2)n1
Effect on: enzyme activity
Mode: inhibitor
Concentration: 0.5 µM
Baseline: control
target | remaining activity [%]
Homeodomain-interacting protein kinase 4 (HIPK4, Homo sapiens, UniProt Q8NE63) | 99.5
Ephrin type-A receptor 4 (EPHA4, Homo sapiens, UniProt P54764) | 108
Serine/threonine-protein kinase 17A (STK17A, Homo sapiens, UniProt Q9UEE5) | 92.4
Testis-specific serine/threonine-protein kinase 2 (TSSK2, Homo sapiens, UniProt Q96PF2) | 100
Calcium/calmodulin-dependent protein kinase type II subunit beta (CAMK2B, Homo sapiens, UniProt Q13554) | 97.6
Serine/threonine-protein kinase 16 (STK16, Homo sapiens, UniProt O75716) | 103
MAP kinase-activated protein kinase 3 (MAPKAPK3, Homo sapiens, UniProt Q16644) | 97.8
Tyrosine-protein kinase Blk (BLK, Homo sapiens, UniProt P51451) | 89
Tyrosine-protein kinase receptor UFO (AXL, Homo sapiens, UniProt P30530) | 90.5
Mitogen-activated protein kinase kinase kinase kinase 4 (MAP4K4, Homo sapiens, UniProt O95819) | 99.8
Cyclin-dependent kinase 6, with cyclin D3 (CDK6, Homo sapiens, UniProt Q00534) | 103
Ephrin type-B receptor 1 (EPHB1, Homo sapiens, UniProt P54762) | 102
3-phosphoinositide-dependent protein kinase 1 (PDPK1, Homo sapiens, UniProt O15530) | 95.2
Ephrin type-B receptor 4 (EPHB4, Homo sapiens, UniProt P54760) | 95.1
Cyclin-dependent kinase 4, with cyclin D3 (CDK4, Homo sapiens, UniProt P11802) | 107
Homeodomain-interacting protein kinase 2 (HIPK2, Homo sapiens, UniProt Q9H2X6) | 104
Phosphorylase b kinase gamma catalytic chain, skeletal muscle/heart isoform (PHKG1, Homo sapiens, UniProt Q16816) | 93.4
Serine/threonine-protein kinase WNK3 (WNK3, Homo sapiens, UniProt Q9BYP7) | 99.4
Tyrosine-protein kinase Srms (SRMS, Homo sapiens, UniProt Q9H3Y6) | 100
Ribosomal protein S6 kinase alpha-5 (RPS6KA5, Homo sapiens, UniProt O75582) | 98.3
Cyclin-dependent kinase 1, with cyclin B (CDK1, Homo sapiens, UniProt P06493) | 103
Ribosomal protein S6 kinase alpha-6 (RPS6KA6, Homo sapiens, UniProt Q9UK32) | 101
cAMP-dependent protein kinase catalytic subunit gamma (PRKACG, Homo sapiens, UniProt P22612) | 106

Further values, each from its own experiment
SMILES | cell line | conditions | measurement | result
O=C(OC[C@H]1O[C@@H](OC(=O)c2cc(O)c(O)c(OC(=O)c3cc(O)c(O)c(O)c3)c2)[C@H](OC(=O)c2cc(O)c(O)c(OC(=O)c3cc(O)c(O)c(O)c3)c2)[C@@H](OC(=O)c2cc(O)c(O)c(OC(=O)c3cc(O)c(O)c(O)c3)c2)[C@@H]1OC(=O)c1cc(O)c(O)c(OC(=O)c2cc(O)c(O)c(O)c2)c1)c1cc(O)c(O)c(OC(=O)c2cc(O)c(O)c(O)c2)c1 | A-375 | 100 µM, 60 h | viability | 25.1%

A few entries again (block 3):
target | remaining activity [%]
Phosphorylase b kinase gamma catalytic chain, skeletal muscle/heart isoform (PHKG1, Homo sapiens, UniProt Q16816) | 93.4
Serine/threonine-protein kinase WNK3 (WNK3, Homo sapiens, UniProt Q9BYP7) | 99.4
